# Experimental data of several laboratories.
# Protocols differ between the studies behind these lines. “And” joins repeats or separate records; there may be more than shown. ± marks the error that the study gave.
# UniProt Q9NWZ3, sequence (whole entry, looked up): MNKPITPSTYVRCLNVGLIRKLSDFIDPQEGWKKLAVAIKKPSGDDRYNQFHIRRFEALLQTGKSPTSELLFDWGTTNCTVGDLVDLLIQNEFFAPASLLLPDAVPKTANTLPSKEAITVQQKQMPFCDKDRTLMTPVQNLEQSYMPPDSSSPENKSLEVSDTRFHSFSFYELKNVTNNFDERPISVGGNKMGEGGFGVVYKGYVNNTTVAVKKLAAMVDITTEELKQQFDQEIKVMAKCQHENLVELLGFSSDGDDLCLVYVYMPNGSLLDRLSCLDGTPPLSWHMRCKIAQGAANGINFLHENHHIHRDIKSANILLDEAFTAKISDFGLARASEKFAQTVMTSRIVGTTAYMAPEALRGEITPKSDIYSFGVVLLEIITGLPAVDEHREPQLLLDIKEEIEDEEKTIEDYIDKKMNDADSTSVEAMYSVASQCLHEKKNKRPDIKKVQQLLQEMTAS
# UniProt Q15131, sequence (whole entry, looked up): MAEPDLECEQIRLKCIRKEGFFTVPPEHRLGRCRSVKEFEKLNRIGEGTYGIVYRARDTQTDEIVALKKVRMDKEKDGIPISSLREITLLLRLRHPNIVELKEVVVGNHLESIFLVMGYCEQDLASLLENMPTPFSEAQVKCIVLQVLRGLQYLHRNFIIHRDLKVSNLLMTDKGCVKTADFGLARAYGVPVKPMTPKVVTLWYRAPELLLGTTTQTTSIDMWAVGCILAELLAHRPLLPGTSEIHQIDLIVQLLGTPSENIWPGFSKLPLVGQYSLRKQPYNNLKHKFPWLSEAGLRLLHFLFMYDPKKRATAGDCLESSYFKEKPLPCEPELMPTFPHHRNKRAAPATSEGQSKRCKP
SMILES,tested on,assay,test system,setting,how to read,measurement,result
CC(=O)c1c(O)c(C)c(O)c2c1OC1=CC(=O)C(=C(C)NCCCCOC3OC4OC5(C)CCC6C(C)CCC(C3C)C46OO5)C(=O)C12C (mixture of isomers),Plasmodium berghei,,"ANKA GFP, mouse NMRI","intraperitoneal, 4 × 50 mg/kg",,mean survival time,5.3 days
C[C@H]1[C@H](OC(=O)CCC(=O)OCc2cn(-c3cc4ccc(O)cc4oc3=O)nn2)O[C@@H]2O[C@@]3(C)CC[C@H]4[C@H](C)CC[C@@H]1[C@@]24OO3,Plasmodium berghei,,"NK65/GFP, mouse","subcutaneous, 22 µmol/kg daily for four days",,cure rate,0%
COc1ccc(Cn2c3cc(=O)n(Cc4cccc(Cl)n4)c(C)c3c(=O)n2-c2ccccn2)cc1,human respiratory syncytial virus,,recombinant reporter virus,"concentration not given, scale 0 to 100, added: cytidine 1.2 µM",,normalized viral replication,0
CCOC(=O)C1(Cc2ccccc2)Oc2cc(F)ccc2N(Cc2ccccc2)C1=O (centres unmarked),Arabidopsis thaliana,,"Col-0, seed germination, dark","50 µg/mL, 7 days, 22 °C",,stem length inhibition,34.6%
Fc1cccc(COc2ccc(Nc3ncnc4ccc(-c5ccc(N6CCOCC6)cc5)cc34)cc2Cl)c1,Plasmodium falciparum,"parasite growth, SYBR Green",D6,blood stage,,EC50,270 nM
CCOC(=O)C1(Cc2ccc(C(F)(F)F)cc2)Oc2cc(F)ccc2N(Cc2ccc(C(F)(F)F)cc2)C1=O (centres unmarked),Arabidopsis thaliana,"root length, petri dish germination","Col-0, 1/2 MS medium","50 µg/mL, 7 days, 22 °C, dark",,inhibition,30.1%
CC(C)[C@H]1NC(=O)C[C@H]2/C=C/CCSSC[C@@H](NC1=O)C(=O)N[C@H](Cc1cccc3ccccc13)C(=O)NCC(=O)O2,"Interleukin-1 receptor-associated kinase 4 (IRAK4, Homo sapiens, UniProt Q9NWZ3)","enzyme activity, inhibitor",,10 µM,,inhibition,5.4%
CN(C)[C@H]1C[C@@]23CC[C@@]4(O2)C(=CC[C@]2(C)[C@@H](c5ccc6ccncc6c5)CC[C@H]24)C=C3[C@@H](O)[C@@H]1O,"Cyclin-dependent kinase 10 (CDK10, Homo sapiens, UniProt Q15131)","ATP probe labelling, inhibitor, KiNativ profiling",,0.1 µM,,inhibition,-2.8%
O=S(=O)(c1cccc(-c2ccc3ncnc(Nc4ccc(OCc5cccc(F)c5)c(Cl)c4)c3c2)c1)N1CCCC1,Plasmodium falciparum,"parasite growth, SYBR Green",D6,blood stage,,EC50,190 nM
CN(C(=O)c1ccn2ncc(-c3ccc(C(N)=O)cc3)c2c1)c1ccc(C#N)cn1,Cryptosporidium parvum,,"UGA1 Nluc, IFN-gamma knockout C57BL/6 mice, faeces","oral, 10 mg/kg daily, 240 h post infection, treatment days 11-17",higher means more parasites,faecal Nluc luminescence,265000 a.u. and 9740 a.u. and 121000 a.u. and 22300 a.u. and 146000 a.u.
Fc1cccc(COc2ccc(Nc3ncnc4ccc(-c5ccc(CN6CCOCC6)cc5)cc34)cc2Cl)c1,Plasmodium falciparum,"parasite growth, SYBR Green fluorescence","C235 (TM91C235), drug-resistant",,,EC50,85 nM
CCOC(=O)C1(Cc2ccc(F)cc2)Oc2cc(F)ccc2N(Cc2ccc(F)cc2)C1=O (centres unmarked),Arabidopsis thaliana,"stem length, petri dish germination","Col-0, 1/2 MS medium","50 µg/mL, 7 days, 22 °C, dark",,inhibition,22.9%
CCCCCCCCCC(=O)NCCCC[C@H](NC(=O)CCCCCCCCC)C(=O)N[C@@H](CCCCNC(=O)CCCCCCCCC)C(=O)NCC(=O)NCC(=O)NCC(=O)N[C@@H](CS)C(=O)N[C@@H](CCCNC(=N)N)C(=O)N[C@@H](CCCCN)C(=O)N1CCC[C@H]1C(=O)N[C@@H](CS)C(=O)N[C@@H](CCCNC(=N)N)C(=O)N[C@@H](CCCCN)C(=O)N1CCC[C@H]1C(N)=O,Candida albicans,broth microdilution,"17546, RPMI-1640","48 h, 30 °C",,MIC,32 µM
COc1ccccc1-c1n[nH]c2nc(N[C@H]3CC[C@H](NS(=O)(=O)CC(C)C)CC3)ncc12,,"bead binding, competition bead pull-down, refers to: LINJ.35.1070",Leishmania donovani extract,10 µM,relative to: vehicle,relative abundance,0.93
CC[C@H](C)[C@H](NC(=O)[C@H](CO)NC(=O)[C@H](Cc1ccc(O)cc1)NC(=O)[C@H](Cc1ccc(O)cc1)NC(=O)[C@H](CC(N)=O)NC(=O)CNC(=O)[C@H](CO)NC(=O)[C@H](Cc1ccc(O)cc1)NC(=O)[C@H](CO)NC(=O)[C@H](CO)NC(=O)[C@H](CC(N)=O)NC(=O)COCCOCCNC(=O)CN1CCN(CC(=O)O)CCN(CC(=O)O)CCN(CC(=O)O)CC1)C(=O)N[C@@H](CC(C)C)C(N)=O [copper-64 labelled],,dynamic PET,"KPC mouse Ptf1a-CreER tdTomato, pancreas","intravenous, dose not given, 2.5 min, 84 d after tamoxifen",,tissue uptake,13 %ID/mL
C[N+]1=C2C(c3ccc([N+](=O)[O-])cc3)=[N+]([O-])c3ccccc3N2CCC1,Fusobacterium nucleatum,microbial growth,,,,MIC50,0.25 µg/mL
CCc1nn(C)c2nc(-c3ccc(C(=O)O)cc3)nc(NCc3ccccc3)c12,Cryptosporidium parvum,,HCT-8,"9 x EC90, 6 h",relative to: DMSO control,parasite number,96.4% and 68.2% and 98.1% and 131%
CC(C)[C@H]1NC(=O)[C@H](Cc2ccccc2)NC(=O)[C@@H](C(C)C)NC(=O)[C@@H](C)NC(=O)[C@H](CO)NC(=O)[C@@H](Cc2c(-c3ccc(-c4ccccc4)c(F)c3)[nH]c3ccccc23)NC(=O)[C@@H](CO)NC1=O,Candida albicans,broth dilution,,,,MIC90,> 50 µM
CC(O)CN.O=C(O)C(Cl)Cl,Xanthium sibiricum,,,"15 mg/mL, 21 days, pre-emergence, greenhouse",,herbicidal inhibition,0%
O=S(=O)(c1ccc(-c2ccc3ncnc(Nc4ccccc4)c3c2)cc1)N1CCOCC1,Plasmodium falciparum,"parasite growth, SYBR Green fluorescence","C235 (TM91C235), drug-resistant",,,EC50,> 4000 nM
CC[C@H](C)CCCCC(=O)N[C@@H](CCN)C(=O)N[C@H](C(=O)N[C@@H](CCN)C(=O)N[C@H]1CCNC(=O)[C@H]([C@@H](C)O)NC(=O)[C@H](CCN)NC(=O)[C@H](CCN)NC(=O)[C@H](CC(C)C)NC(=O)[C@@H](CC(C)C)NC(=O)[C@H](CCN)NC1=O)[C@@H](C)O,Escherichia coli,daily serial passaging,ATCC 8739,"highest sub-MIC, 29 days",relative to: initial MIC,MIC fold change,1.63
CCOC(=O)C1(Cc2ccccc2C#N)Oc2cc(F)ccc2N(Cc2ccccc2C#N)C1=O (centres unmarked),Arabidopsis thaliana,"stem length, petri dish germination","Col-0, 1/2 MS medium","50 µg/mL, 7 days, 22 °C, dark",,inhibition,27.3%
O=C1NC2(CC2)COc2ncc(F)cc2[C@H]2COCCN2c2ccn3ncc1c3n2,,,"Sprague-Dawley rat, female, serum","oral, 20 mg/kg/day, end of recovery, 4-week subacute toxicity",,serum total bilirubin,1.3 ± 0.3 µmol/L
COc1ccccc1-c1n[nH]c2nc(NC3CCN(C(=O)Cc4ccc(F)cc4F)CC3)ncc12,,"bead binding, competition bead pull-down, refers to: LINJ.36.1700",Leishmania donovani extract,10 µM,relative to: vehicle,relative abundance,0.88
Fc1cccc(COc2ccc(Nc3ncnc4ccc(-c5ccc(N6CCNCC6)cc5)cc34)cc2Cl)c1,Plasmodium falciparum,"parasite growth, SYBR Green fluorescence","C235 (TM91C235), drug-resistant",,,EC50,760 nM
CC(C)C[C@H](NC(=O)[C@H](CC(C)C)NC(=O)[C@H](CCCCN)NC(=O)[C@H](Cc1ccccc1)NC(=O)[C@@H](NC(=O)[C@H](CCCNC(=N)N)NC(=O)[C@@H](N)CCCCN)C(C)C)C(=O)N[C@@H](CCCCN)C(=O)N[C@@H](CCCNC(=N)N)C(=O)N[C@@H](Cc1ccc(O)cc1)C(=O)N[C@@H](Cc1c[nH]c2ccccc12)C(=O)N[C@@H](CCCNC(=N)N)C(=O)N[C@@H](CCC(N)=O)C(=O)N[C@@H](CC(C)C)C(=O)N[C@@H](CCCCN)C(=O)N[C@@H](CCCCN)C(=O)N1CCC[C@H]1C(=O)N[C@H](C(=O)N[C@@H](CCCNC(=N)N)C(=O)NCCOCCOCC(=O)O)C(C)C,Pseudomonas aeruginosa and Staphylococcus aureus,crystal violet,,"16 µM, 24 h, polymicrobial biofilm",,biofilm inhibition,> 80%
FC(F)(F)c1cccc(CNc2nc(NC3CCN(Cc4ccccc4)CC3)c3nc[nH]c3n2)c1,Cryptococcus neoformans,"RNA-seq, refers to: CNAG_05321",,"48 µg/mL, 3 h",relative to: untreated,mRNA fold change,1.09
CCCCCC[C@H]1C(=O)O[C@H](C)[C@H](NC(=O)c2cccc(NC=O)c2O)C(=O)O[C@@H](C)[C@@H]1OC(=O)CC(C)C,Bovine alphaherpesvirus 1,viral replication,bovine epithelial cells,,,IC50,77 nM
O=c1n(CCNCCOS(=O)(=O)c2ccccc2)c(=O)n(S(=O)(=O)c2ccccc2)c(=O)n1S(=O)(=O)c1ccccc1,Bacillus subtilis,broth microdilution,,,,MLC,4 ± 1 µg/mL
Cc1cc(C(=O)Nc2nc3cccc(C)c3n2[C@H]2CCCCN(C(=O)/C=C/CN(C)C)C2)ccn1,Trypanosoma brucei brucei,,2T1 wild type,0.2778 µM,,survival,0.1% and 0.11% and -0.11% and -0.09% and -0.0154% and -0.019%
Cc1cc(Oc2nc(N3CC[C@@H](c4ccncc4)C3)ncc2F)[nH]n1,Kasumi 1,cell proliferation,,,,IC50,15500 nM
CCOC(=O)C1(CC=C(C)C)Oc2cc(F)ccc2N(CC=C(C)C)C1=O (centres unmarked),Arabidopsis thaliana,"root length, petri dish germination","Col-0, 1/2 MS medium","200 µg/mL, 7 days, 22 °C, dark",,inhibition,52%
CC(C)(C)C(=O)OCOP(=O)(OCOC(=O)C(C)(C)C)C1CCCN(O)C1=O (centres unmarked),Hs-578T,,,,,log LC50,> -4 log M
COc1ccc2nc3cc(Cl)ccc3c(Nc3cc(C(C)C)c(O)cc3C)c2c1,HIV-1 subtype C,viral replication,,96 h,,IC50,12500 nM
CC(=O)c1c(O)c(C)c(O)c2c1OC1=CC(=O)C(=C(C)NCCCC(=O)OC3OC4OC5(C)CCC6C(C)CCC(C3C)C46OO5)C(=O)C12C (centres unmarked),Plasmodium berghei,,"ANKA GFP, NMRI mouse","oral, 4 x 3 mg/kg",,mean survival time,7 days
CN(C)c1nc(NCc2ccc(F)cc2F)c(/N=N/c2ccc(Cl)cc2)c(N(C)C)n1,Plutella xylostella,leaf dipping,,"200 mg/L, 96 h",,mortality,53.3 ± 5.8%
[O-][N+]1=C(c2ccsc2)C2=NCCCN2c2ccccc21,Fusobacterium nucleatum,microbial growth,,,,MIC50,0.25 µg/mL
C[C@H](NC(=O)[C@@H](O)c1cc(F)cc(F)c1)C(=O)N[C@@H]1C(=O)N(C)c2ccccc2-c2ccccc21,dengue virus 2,"viral infection, luciferase reporter virus",,"100 nM, 48 h",,inhibition,99.9%
Clc1cc(Nc2ncnc3ccc(-c4cccc(N5CCOCC5)c4)cc23)ccc1OCc1ccccc1,Plasmodium falciparum,"parasite growth, SYBR Green fluorescence","C235 (TM91C235), drug-resistant",,,EC50,720 nM
CCCN1C(=O)C(CCC)(C(=O)OCC)Oc2cc(F)ccc21 (centres unmarked),Arabidopsis thaliana,"stem length, petri dish germination","Col-0, 1/2 MS medium","50 µg/mL, 7 days, 22 °C, dark",,inhibition,74.5%
COc1cccc(COc2ccc(Nc3ncnc4ccc(-c5ccc(S(=O)(=O)N6CCOCC6)cc5)cc34)cc2Cl)c1,Plasmodium falciparum,"parasite growth, SYBR Green",D6,blood stage,,EC50,230 nM
CCOC(=O)C1(Cc2ccc(C)cc2)Oc2cc(F)ccc2N(Cc2ccc(C)cc2)C1=O (centres unmarked),Arabidopsis thaliana,"stem length, petri dish germination","Col-0, 1/2 MS medium","200 µg/mL, 7 days, 22 °C, dark",,inhibition,71.9%
CCCCCCCC(=O)NCCCC[C@H](NC(=O)CCCCCCC)C(=O)N[C@@H](CCCCNC(=O)CCCCCCC)C(=O)NCC(=O)NCC(=O)NCC(=O)N[C@@H](CS)C(=O)N[C@@H](CCCNC(=N)N)C(=O)N[C@@H](CCCCN)C(=O)N1CCC[C@H]1C(=O)N[C@@H](CS)C(=O)N[C@@H](CCCNC(=N)N)C(=O)N[C@@H](CCCCN)C(=O)N1CCC[C@H]1C(=O)N[C@@H](CS)C(=O)N[C@@H](CCCNC(=N)N)C(=O)N[C@@H](CCCCN)C(=O)N1CCC[C@H]1C(=O)N[C@@H](CS)C(=O)N[C@@H](CCCNC(=N)N)C(=O)N[C@@H](CCCCN)C(=O)N1CCC[C@H]1C(N)=O,Candida albicans,broth microdilution,"SP 3876, RPMI-1640","48 h, 30 °C",,MIC,32 µM
Fc1cccc(COc2ccc(Nc3ncnc4ccc(-c5cccc(CN6CCCCC6)c5)cc34)cc2Cl)c1,Plasmodium falciparum,"parasite growth, SYBR Green",D6,blood stage,,EC50,39 nM
Cc1ccc(N2CC3CC(C2)N3C)cc1C(=O)NC1(c2ccc3c4c(cccc24)C(=O)N3C)CC1,Betacoronavirus 1,viral replication,"Huh-7, OC43",11.72 nM,,inhibition,0%
C#CCN1C(=O)C(CC#C)(C(=O)OCC)Oc2ccccc21 (centres unmarked),Arabidopsis thaliana,,"Col-0, seed germination, dark","200 µg/mL, 7 days, 22 °C",,stem length inhibition,100%
[2H]C([2H])([2H])n1cnc(Cn2c(=O)[nH]/c(=N\c3cc4cn(C)nc4cc3Cl)n(Cc3cc(F)c(F)cc3F)c2=O)n1,Betacoronavirus 1,"viral replication, qPCR","OC43, human",,,IC50,270 nM
